Measurements of several laboratories.
Each numbered part is a random draw from the data of one study; scales do not carry over between parts. Several values in a cell are separate wells, animals, samples, runs or records.

Block 1 — read-out: thermal unfolding; method: differential scanning fluorimetry; tested at: 5.5 µM; reading: higher = more unfolded
SMILES: C[C@@H]1CN(c2ccc(-c3cc(C(=O)NCCOCCOCCOCCOCCNC(=O)Cn4cc(-c5[nH]cc(C(=O)N[C@@H](CC(N)=O)c6ccc(F)c(Cl)c6)c5-c5ccc(Cl)cc5F)cn4)ccc3F)cc2NC(=O)c2c[nH]c(=O)cc2C(F)(F)F)C[C@H](C)N1C
WDR5: WD repeat-containing protein 5 (WDR5, Homo sapiens, UniProt P61964)
It gave 42600 a.u. for “SYPRO Orange fluorescence” (WDR5; 90.81 °C).
The “SYPRO Orange fluorescence” was 14300 a.u. (WDR5; 33 °C).
The “SYPRO Orange fluorescence” was 12600 a.u. (WDR5; 57.01 °C).
The “SYPRO Orange fluorescence” was 8270 a.u. (DDB1- and CUL4-associated factor 1 (DCAF1, Homo sapiens, UniProt Q9Y4B6); 30 °C).
It gave 14300 a.u. for “SYPRO Orange fluorescence” (WDR5; 47.2 °C).
WDR5; 77.41 °C — “SYPRO Orange fluorescence”: 15700 a.u.
It gave 9830 a.u. for “SYPRO Orange fluorescence” (WDR5; 74.21 °C).

Block 2 — tested at: 1 µM
SMILES: CC[C@@]1(c2cccc(C(F)(F)F)c2)C2=C(Nc3n[nH]cc31)[C@H](F)C(C)(C)CC2=O (single isomer, unassigned)
It gave 100% for remaining binding (Cyclin-dependent kinase 19 (CDK19, Homo sapiens, UniProt Q9BWU1); KINOMEscan).
It gave 73% for remaining binding (Epidermal growth factor receptor (EGFR, Homo sapiens, UniProt P00533, del752-759); binding, competition with immobilised ligand).
Fibroblast growth factor receptor 3 (FGFR3, Homo sapiens, UniProt P22607); kinase binding, KINOMEscan; baseline: DMSO control — remaining binding: 100%.
For Insulin receptor-related protein (INSRR, Homo sapiens, UniProt P14616); kinase binding, KINOMEscan; baseline: DMSO control: remaining binding read 100%.
For Phosphorylase b kinase gamma catalytic chain, skeletal muscle/heart isoform (PHKG1, Homo sapiens, UniProt Q16816); binding, competition with immobilised ligand: remaining binding read 92%.
It gave 100% for remaining binding (Mast/stem cell growth factor receptor Kit (KIT, Homo sapiens, UniProt P10721, A829P); binding, competition with immobilised ligand).
Phosphatidylinositol 3-kinase C2 domain-containing subunit gamma (PIK3C2G, Homo sapiens, UniProt O75747); binding, competition with immobilised ligand — remaining binding: 84%.
For Serine/threonine-protein kinase Chk2 (CHEK2, Homo sapiens, UniProt O96017); binding, competition with immobilised ligand: remaining binding read 100%.
It gave 99% for remaining binding (Cyclin-dependent kinase 16 (CDK16, Homo sapiens, UniProt Q00536); kinase binding, KINOMEscan; baseline: DMSO control).
It gave 96% for remaining binding (Tyrosine-protein kinase Srms (SRMS, Homo sapiens, UniProt Q9H3Y6); kinase binding, KINOMEscan; baseline: DMSO control).
For SRSF protein kinase 1 (SRPK1, Homo sapiens, UniProt Q96SB4); kinase binding, KINOMEscan; baseline: DMSO control: remaining binding read 99%.
It gave 91% for remaining binding (Protein kinase C iota type (PRKCI, Homo sapiens, UniProt P41743); binding, competition with immobilised ligand).
5'-AMP-activated protein kinase catalytic subunit alpha-1 (PRKAA1, Homo sapiens, UniProt Q13131); binding, competition with immobilised ligand — remaining binding: 100%.

Mixed results
MPO: Myeloperoxidase (MPO, Homo sapiens, UniProt P05164)
`CC(C)(C)NC(=O)c1ccc(OC/C(=C/F)CN)cc1` gave an inhibition of -14.3% and -16.2% and -12.7% (MPO; enzyme activity, inhibitor, fluorescence; 10 µM).
`Cc1ncsc1-c1ccc(C(CO)NC(=O)C2CC(O)CN2C(=O)C(NC(=O)c2ccc(COc3c(-c4c(C)c(F)cc5[nH]ncc45)c(C4CC4)cc4c(N5CC6CC5CN6)nc(OC5CCOCC5)nc34)cc2)C(C)C)cc1` (stereo not drawn) has a DC50 of 82.6 nM and 194 nM and 73.4 nM (GTPase KRas (KRAS, Homo sapiens, UniProt P01116, G12D); degrader, In-Cell ELISA; AsPC-1 (KRAS G12D); 24 h).
With `C=C(CN)COc1cccc(Cn2c(=S)[nH]c(=O)c3[nH]cnc32)c1` the inhibition was 25.4% (MPO; enzyme activity, inhibitor, fluorescence; 4.1 nM).
For `CCN1CCN(Cc2ccc(COc3c(-c4c(C)c(F)cc5[nH]ncc45)c(C4CC4)cc4c(N5C[C@@H]6C[C@H]5CN6)nc(OC5CCOCC5)nc34)cc2)C(=O)C1`, the ERK1/2 phosphorylation was 110% and 116% and 114% and 137% (A-375 (KRAS wild type); in-cell ELISA, measured: phospho-ERK1/2; 1 µM, 2 h).
`NC/C(=C\F)COc1cc(Cn2c(=S)[nH]c(=O)c3[nH]cnc32)cc(C(F)(F)F)c1` gave an IC50 of 1560 nM (Amine oxidase [copper-containing] 3 (AOC3, Homo sapiens, UniProt Q16853); enzyme activity, inhibitor, fluorescence).
`Cc1ncsc1-c1ccc(C2(NC(=O)C3CC(O)CN3C(=O)C(NC(=O)c3ccc(COc4c(-c5c(C)c(F)cc6[nH]ncc56)c(C5CC5)cc5c(N6CC7CC6CN7)nc(OC6CCOCC6)nc45)cc3)C(C)(C)C)CC2)cc1` (stereo not drawn) has a phospho-ERK1/2 level of 50.9% and 55.4% and 39.1% and 40.9% and 21.7% and 36.4% (AsPC-1; in-cell ELISA; 1 µM, individual replicates).
`CS(=O)(=O)c1ccc(OC/C(=C/F)CN)cc1.Cl` gave an inhibition of 5.57% and 3.74% and -1.72% (Amine oxidase [flavin-containing] B (MAOB, Homo sapiens, UniProt P27338); enzyme activity, inhibitor; 1.5 nM).

Some of these lines once more (block 1):
It gave 42600 a.u. for “SYPRO Orange fluorescence” (WDR5; 90.81 °C).
The “SYPRO Orange fluorescence” was 12600 a.u. (WDR5; 57.01 °C).
WDR5; 77.41 °C — “SYPRO Orange fluorescence”: 15700 a.u.
It gave 9830 a.u. for “SYPRO Orange fluorescence” (WDR5; 74.21 °C).
